Published values pooled from the literature.
Every numbered part comes from another study and shows a few of its results, in no order.
Chain of UniProt Q7L7X3 (whole entry, looked up): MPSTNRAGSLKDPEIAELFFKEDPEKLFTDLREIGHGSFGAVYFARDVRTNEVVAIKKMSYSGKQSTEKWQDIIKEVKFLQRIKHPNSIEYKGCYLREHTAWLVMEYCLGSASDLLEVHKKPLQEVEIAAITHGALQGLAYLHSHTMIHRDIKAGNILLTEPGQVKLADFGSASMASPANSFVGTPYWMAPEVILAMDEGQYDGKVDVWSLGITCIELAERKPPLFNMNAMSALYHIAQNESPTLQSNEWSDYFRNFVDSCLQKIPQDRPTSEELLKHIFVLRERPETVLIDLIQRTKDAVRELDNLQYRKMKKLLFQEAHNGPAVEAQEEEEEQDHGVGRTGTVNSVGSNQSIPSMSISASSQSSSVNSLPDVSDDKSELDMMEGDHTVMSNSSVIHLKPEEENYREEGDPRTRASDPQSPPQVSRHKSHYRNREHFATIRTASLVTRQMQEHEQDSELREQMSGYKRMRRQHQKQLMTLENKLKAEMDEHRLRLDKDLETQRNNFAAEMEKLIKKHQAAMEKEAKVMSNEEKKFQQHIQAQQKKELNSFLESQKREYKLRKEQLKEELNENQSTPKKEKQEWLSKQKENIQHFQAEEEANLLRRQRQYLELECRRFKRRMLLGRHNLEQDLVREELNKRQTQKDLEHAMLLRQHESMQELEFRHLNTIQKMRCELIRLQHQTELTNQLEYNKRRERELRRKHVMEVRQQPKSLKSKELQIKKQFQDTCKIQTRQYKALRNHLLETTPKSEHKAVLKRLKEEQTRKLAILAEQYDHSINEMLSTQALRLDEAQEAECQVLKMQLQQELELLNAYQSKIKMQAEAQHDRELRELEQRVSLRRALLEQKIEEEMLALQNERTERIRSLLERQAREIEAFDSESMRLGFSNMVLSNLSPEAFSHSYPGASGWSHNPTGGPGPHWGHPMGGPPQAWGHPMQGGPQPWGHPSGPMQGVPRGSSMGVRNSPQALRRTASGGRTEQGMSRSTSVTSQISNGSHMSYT
Chain of UniProt Q12866 (whole entry, looked up): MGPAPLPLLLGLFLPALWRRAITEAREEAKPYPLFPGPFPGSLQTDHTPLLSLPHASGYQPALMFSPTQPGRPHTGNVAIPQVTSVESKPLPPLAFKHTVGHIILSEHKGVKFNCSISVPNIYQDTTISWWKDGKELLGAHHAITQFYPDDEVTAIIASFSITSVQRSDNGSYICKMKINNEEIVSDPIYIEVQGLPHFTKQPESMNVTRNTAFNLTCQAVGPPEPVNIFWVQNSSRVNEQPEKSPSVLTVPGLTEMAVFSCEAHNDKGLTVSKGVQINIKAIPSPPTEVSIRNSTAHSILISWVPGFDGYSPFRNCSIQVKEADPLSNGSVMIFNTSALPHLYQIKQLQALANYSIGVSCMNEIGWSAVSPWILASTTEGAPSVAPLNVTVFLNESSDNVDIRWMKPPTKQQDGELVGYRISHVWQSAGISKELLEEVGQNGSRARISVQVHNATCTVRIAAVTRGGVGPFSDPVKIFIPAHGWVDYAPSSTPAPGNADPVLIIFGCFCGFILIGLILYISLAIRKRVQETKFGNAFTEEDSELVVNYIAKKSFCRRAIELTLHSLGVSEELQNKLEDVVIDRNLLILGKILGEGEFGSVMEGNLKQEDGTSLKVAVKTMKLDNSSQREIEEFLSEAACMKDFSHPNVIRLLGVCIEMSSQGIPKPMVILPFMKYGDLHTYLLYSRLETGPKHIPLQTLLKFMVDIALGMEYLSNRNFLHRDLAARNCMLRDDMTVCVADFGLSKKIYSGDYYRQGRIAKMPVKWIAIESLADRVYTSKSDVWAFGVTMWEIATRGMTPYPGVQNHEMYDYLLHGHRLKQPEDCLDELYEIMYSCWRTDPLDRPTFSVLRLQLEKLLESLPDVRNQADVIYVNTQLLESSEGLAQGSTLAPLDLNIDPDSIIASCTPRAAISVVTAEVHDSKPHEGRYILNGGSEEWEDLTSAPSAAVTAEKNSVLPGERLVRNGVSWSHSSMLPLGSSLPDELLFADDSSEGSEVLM
Chain of UniProt P49841 (whole entry, looked up): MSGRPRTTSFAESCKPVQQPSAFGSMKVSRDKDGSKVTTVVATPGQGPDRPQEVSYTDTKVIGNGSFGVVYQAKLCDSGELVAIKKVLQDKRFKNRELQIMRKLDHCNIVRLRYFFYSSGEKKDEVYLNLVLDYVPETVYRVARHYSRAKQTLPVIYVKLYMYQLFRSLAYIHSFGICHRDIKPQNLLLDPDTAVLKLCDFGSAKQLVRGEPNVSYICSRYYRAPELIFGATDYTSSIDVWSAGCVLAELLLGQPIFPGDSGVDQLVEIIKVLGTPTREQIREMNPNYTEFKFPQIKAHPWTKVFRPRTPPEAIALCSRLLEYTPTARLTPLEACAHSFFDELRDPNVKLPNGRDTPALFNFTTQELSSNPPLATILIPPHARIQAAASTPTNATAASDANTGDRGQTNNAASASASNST
Chain of UniProt P36896 (whole entry, looked up): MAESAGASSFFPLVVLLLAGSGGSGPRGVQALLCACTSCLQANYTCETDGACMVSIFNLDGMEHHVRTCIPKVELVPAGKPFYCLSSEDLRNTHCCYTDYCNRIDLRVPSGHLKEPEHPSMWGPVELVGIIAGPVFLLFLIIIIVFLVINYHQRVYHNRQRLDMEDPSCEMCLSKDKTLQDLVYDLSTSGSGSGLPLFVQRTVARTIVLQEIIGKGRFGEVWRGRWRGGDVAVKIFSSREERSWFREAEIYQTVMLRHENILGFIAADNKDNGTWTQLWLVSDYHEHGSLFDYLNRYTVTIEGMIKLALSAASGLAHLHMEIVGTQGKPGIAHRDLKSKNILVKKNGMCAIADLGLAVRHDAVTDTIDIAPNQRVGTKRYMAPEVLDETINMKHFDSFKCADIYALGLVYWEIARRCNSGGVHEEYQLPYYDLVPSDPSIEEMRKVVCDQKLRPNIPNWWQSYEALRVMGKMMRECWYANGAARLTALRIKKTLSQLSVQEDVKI
Chain of UniProt P10721 (whole entry, looked up): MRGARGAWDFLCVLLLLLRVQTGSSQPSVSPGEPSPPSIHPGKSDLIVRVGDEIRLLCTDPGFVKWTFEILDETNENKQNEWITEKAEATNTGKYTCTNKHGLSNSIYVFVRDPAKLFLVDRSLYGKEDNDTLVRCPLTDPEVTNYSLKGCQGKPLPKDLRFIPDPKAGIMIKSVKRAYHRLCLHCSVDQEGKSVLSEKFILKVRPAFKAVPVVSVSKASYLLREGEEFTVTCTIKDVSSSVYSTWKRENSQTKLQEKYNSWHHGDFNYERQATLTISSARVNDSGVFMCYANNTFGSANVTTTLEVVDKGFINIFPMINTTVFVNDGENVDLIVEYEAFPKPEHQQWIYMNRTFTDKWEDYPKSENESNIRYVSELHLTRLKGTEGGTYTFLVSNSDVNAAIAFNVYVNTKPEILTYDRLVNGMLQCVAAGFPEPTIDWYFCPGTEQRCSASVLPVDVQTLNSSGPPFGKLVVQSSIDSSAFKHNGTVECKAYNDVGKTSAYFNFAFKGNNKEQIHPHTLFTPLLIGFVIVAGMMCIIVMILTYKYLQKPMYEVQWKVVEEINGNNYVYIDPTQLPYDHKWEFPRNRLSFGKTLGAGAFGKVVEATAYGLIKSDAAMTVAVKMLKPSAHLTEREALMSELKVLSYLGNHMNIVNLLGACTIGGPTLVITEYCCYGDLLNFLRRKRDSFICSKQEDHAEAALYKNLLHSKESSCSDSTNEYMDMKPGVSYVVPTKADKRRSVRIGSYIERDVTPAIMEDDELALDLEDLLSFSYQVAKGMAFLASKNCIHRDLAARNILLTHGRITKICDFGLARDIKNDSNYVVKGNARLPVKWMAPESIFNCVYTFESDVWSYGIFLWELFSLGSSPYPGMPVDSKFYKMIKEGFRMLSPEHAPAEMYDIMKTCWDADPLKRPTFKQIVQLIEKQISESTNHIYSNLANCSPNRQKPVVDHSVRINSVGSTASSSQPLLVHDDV

Study 1 — technique: protein binding microarray; form: double-stranded DNA, one strand shown; sample: in vitro; concentration: not given; baseline: not given; direction: higher = stronger binding
Target: Histone acetyltransferase KAT6A, winged helix 2, GST fusion (KAT6A, Homo sapiens, UniProt Q92794, residues 85-181)
Notes: 8-mer, flanks averaged, mean of 2 arrays, mostly near background
Residues (chain): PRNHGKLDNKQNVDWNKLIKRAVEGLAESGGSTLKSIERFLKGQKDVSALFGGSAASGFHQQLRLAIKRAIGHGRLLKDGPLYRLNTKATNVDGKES
| Strand | E-score |
| --- | --- |
| CGAGACTC | -0.0942 |
| CGAAATTC | -0.0329 |
| CAGCTGCA | -0.118 |
| ACAGAACT | -0.0958 |
| GTACCGGA | -0.0325 |
| CCCTTAAA | 0.022 |
| CACTGGAC | 0.12 |
| CGGTATTC | 0.0191 |

Study 2 — read-out: enzyme activity; mode: inhibitor; concentration: 0.5 µM; baseline: control
Structure (SMILES): Cc1cc(Nc2cc(N3CCN(C)CC3)nc(Sc3ccc(NC(=O)C4CC4)cc3)n2)[nH]n1
| target | remaining activity |
| --- | --- |
| ULK2 (Homo sapiens, UniProt Q8IYT8) | 101% |
| ACVR1B (Homo sapiens, UniProt P36896) | 114% |
| WEE1 (Homo sapiens, UniProt P30291) | 100% |
| RPS6KA2 (Homo sapiens, UniProt Q15349) | 76% |
| NEK6 (Homo sapiens, UniProt Q9HC98) | 94.2% |
| NEK1 (Homo sapiens, UniProt Q96PY6) | 67.6% |
| CSNK1G3 (Homo sapiens, UniProt Q9Y6M4) | 100% |
| MST1R (Homo sapiens, UniProt Q04912) | 83.6% |
| MERTK (Homo sapiens, UniProt Q12866) | 106% |
| MAPK3 (Homo sapiens, UniProt P27361) | 96% |
| GSK3B (Homo sapiens, UniProt P49841) | 104% |
| MAP3K5 (Homo sapiens, UniProt Q99683) | 102% |

Study 3 — technique: universal PBM; form: double-stranded DNA, one strand shown; sample: in vitro; concentration: 600 nM; direction: higher = stronger binding
Target: Sal-like protein 4, full length isoform A (SALL4, Homo sapiens, UniProt Q9UJQ4, residues 1-1053)
Chain of UniProt Q9UJQ4 (whole entry, looked up): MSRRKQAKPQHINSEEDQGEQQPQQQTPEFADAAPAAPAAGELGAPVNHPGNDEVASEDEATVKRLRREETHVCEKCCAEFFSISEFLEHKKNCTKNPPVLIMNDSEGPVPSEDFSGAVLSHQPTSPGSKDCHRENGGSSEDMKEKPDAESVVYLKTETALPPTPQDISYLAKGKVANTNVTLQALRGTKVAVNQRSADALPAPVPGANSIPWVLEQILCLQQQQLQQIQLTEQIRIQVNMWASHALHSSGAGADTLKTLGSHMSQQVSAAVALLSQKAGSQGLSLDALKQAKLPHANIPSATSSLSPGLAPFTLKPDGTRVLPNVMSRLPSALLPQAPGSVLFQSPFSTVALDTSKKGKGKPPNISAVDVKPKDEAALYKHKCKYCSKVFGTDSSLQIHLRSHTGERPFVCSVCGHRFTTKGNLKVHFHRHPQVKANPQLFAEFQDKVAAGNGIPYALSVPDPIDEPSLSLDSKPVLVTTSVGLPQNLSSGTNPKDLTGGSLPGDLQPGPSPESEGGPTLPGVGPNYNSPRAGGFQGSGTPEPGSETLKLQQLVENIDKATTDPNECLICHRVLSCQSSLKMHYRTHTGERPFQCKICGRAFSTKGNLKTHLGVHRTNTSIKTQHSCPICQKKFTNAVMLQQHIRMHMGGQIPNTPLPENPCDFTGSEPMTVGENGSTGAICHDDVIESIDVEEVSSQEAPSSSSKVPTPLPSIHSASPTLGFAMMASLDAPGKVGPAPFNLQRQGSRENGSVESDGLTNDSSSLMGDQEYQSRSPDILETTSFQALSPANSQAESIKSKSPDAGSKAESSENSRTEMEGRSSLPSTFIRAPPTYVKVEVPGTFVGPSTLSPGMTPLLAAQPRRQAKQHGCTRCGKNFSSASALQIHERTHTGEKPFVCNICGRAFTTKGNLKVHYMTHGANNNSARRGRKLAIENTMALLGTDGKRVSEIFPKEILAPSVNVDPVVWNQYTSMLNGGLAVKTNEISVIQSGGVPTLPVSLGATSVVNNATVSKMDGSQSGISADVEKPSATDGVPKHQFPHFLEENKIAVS
Notes: 8-mer, flanks averaged, mean of replicates
| Strand | E-score |
| --- | --- |
| ACTTGAAG | 0.201 |
| AAAGGCGC | -0.191 |
| CCAGTGCA | -0.186 |
| CCGTGCCG | -0.193 |
| GGTAGCAA | -0.0101 |
| CTACGAAC | 0.035 |
| ATCAGCGG | -0.221 |
| TGGACACA | -0.0123 |

Study 4 — read-out: cell-free assay; technique: competition with immobilised ligand; concentration: 1 µM
SMILES: O=C(NS(=O)(=O)c1ccc(NCC2CCOCC2)c([N+](=O)[O-])c1)c1ccc(N2CCN(Cc3ccc(C(F)(F)F)cc3-c3ccc(Cl)cc3)CC2)cc1Oc1cnc2[nH]ccc2c1
| target | remaining binding |
| --- | --- |
| NLK (Homo sapiens, UniProt Q9UBE8) | 93% |
| AKT1 (Homo sapiens, UniProt P31749) | 74% |
| TAOK1 (Homo sapiens, UniProt Q7L7X3) | 87% |
| PAK2 (Homo sapiens, UniProt Q13177) | 100% |
| MAP3K11 (Homo sapiens, UniProt Q16584) | 91% |
| BRSK1 (Homo sapiens, UniProt Q8TDC3) | 100% |
| SGK3 (Homo sapiens, UniProt Q96BR1) | 92% |
| CLK4 (Homo sapiens, UniProt Q9HAZ1) | 100% |
| KIT (Homo sapiens, UniProt P10721) | 100% |
| PLK2 (Homo sapiens, UniProt Q9NYY3) | 100% |
| PIK3CD (Homo sapiens, UniProt O00329) | 60% |
